Measurements pooled from the literature.
Lines come from different studies, so protocols differ. Several values in a cell are separate wells, animals, samples, runs or records. Numbers after ± are the reported error.
PTGS1: Prostaglandin G/H synthase 1 (PTGS1, Homo sapiens, UniProt P23219)
UniProt P23219, sequence (whole entry, looked up): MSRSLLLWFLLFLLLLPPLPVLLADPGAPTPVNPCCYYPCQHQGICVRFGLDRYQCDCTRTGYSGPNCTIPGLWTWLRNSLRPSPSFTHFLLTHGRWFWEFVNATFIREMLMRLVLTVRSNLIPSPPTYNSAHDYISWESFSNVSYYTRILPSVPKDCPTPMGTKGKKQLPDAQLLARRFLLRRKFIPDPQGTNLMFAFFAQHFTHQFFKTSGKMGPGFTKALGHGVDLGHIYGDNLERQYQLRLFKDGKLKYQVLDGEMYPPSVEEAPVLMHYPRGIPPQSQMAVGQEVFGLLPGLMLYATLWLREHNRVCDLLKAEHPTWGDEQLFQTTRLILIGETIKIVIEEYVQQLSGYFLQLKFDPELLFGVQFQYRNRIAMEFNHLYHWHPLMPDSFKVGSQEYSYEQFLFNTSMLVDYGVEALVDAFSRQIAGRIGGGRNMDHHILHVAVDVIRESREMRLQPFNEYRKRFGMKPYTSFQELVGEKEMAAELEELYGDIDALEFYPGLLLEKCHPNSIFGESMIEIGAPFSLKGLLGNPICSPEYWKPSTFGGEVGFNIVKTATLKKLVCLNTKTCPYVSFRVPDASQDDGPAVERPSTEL
TPR: Trypanothione reductase (TPR, Trypanosoma brucei brucei, UniProt P39051)
UniProt P39051, sequence (whole entry, looked up): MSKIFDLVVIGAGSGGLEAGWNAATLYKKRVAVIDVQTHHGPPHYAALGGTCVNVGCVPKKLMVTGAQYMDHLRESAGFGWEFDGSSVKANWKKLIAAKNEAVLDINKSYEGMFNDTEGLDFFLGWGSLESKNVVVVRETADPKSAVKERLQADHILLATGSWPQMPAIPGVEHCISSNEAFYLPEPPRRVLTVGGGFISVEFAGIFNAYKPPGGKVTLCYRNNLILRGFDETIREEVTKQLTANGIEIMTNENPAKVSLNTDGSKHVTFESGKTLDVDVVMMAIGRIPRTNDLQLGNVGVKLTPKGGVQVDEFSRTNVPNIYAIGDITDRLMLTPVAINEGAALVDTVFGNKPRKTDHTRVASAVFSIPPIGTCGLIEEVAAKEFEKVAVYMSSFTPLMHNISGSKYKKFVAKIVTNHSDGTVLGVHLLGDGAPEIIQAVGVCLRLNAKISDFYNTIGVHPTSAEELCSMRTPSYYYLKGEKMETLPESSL
EPHA4: Ephrin type-A receptor 4 (EPHA4, Homo sapiens, UniProt P54764)
UniProt P54764, sequence (whole entry, looked up): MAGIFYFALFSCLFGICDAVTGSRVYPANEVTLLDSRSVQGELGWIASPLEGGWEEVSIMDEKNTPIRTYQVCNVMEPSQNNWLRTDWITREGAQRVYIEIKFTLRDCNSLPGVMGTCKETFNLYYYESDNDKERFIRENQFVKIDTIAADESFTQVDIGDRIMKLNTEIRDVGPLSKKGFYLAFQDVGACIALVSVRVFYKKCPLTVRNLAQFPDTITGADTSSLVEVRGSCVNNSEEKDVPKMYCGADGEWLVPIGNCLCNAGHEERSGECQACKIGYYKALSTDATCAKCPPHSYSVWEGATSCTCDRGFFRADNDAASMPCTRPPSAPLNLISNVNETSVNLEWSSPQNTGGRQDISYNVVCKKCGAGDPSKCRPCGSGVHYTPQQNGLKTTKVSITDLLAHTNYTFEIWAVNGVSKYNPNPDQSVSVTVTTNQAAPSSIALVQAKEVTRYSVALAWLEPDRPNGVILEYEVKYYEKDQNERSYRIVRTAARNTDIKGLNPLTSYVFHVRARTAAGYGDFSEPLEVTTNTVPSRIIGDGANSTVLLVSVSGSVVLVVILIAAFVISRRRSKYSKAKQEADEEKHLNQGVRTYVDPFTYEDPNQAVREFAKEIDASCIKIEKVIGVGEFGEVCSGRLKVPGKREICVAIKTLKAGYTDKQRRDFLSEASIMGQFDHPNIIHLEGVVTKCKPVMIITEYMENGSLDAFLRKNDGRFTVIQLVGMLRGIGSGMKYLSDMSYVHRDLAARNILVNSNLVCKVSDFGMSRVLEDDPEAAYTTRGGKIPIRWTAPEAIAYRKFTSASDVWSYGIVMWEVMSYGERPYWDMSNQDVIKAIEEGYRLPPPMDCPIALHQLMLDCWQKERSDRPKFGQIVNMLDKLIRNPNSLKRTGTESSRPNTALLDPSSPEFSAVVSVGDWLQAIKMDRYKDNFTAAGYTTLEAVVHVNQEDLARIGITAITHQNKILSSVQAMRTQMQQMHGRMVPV
Seed linoleate 13S-lipoxygenase-1: Seed linoleate 13S-lipoxygenase-1 (Glycine max, UniProt P08170)
UniProt P08170, sequence (whole entry, looked up): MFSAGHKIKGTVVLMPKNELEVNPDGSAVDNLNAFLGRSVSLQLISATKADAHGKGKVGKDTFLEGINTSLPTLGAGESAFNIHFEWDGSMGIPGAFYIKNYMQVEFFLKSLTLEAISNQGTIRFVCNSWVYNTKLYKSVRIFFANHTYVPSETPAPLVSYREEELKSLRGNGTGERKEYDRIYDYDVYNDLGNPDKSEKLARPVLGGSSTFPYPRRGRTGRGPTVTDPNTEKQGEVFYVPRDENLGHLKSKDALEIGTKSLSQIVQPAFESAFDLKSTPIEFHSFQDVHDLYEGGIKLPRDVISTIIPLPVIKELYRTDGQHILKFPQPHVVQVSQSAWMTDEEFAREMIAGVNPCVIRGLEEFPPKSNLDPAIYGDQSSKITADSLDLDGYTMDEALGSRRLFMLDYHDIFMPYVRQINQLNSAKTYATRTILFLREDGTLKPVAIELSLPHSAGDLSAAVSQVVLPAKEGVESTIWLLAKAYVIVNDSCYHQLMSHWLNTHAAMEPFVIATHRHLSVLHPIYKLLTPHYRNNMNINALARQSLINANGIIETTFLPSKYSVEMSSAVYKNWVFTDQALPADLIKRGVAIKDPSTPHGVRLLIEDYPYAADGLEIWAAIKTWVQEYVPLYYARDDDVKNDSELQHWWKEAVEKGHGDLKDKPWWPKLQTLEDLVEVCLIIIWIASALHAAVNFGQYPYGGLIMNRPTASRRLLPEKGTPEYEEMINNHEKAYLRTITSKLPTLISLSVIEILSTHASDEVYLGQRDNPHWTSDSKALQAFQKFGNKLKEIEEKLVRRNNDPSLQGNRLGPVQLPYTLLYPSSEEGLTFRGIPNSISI
SEC14: SEC14 (Saccharomyces cerevisiae, UniProt P24280)
UniProt P24280, sequence (whole entry, looked up): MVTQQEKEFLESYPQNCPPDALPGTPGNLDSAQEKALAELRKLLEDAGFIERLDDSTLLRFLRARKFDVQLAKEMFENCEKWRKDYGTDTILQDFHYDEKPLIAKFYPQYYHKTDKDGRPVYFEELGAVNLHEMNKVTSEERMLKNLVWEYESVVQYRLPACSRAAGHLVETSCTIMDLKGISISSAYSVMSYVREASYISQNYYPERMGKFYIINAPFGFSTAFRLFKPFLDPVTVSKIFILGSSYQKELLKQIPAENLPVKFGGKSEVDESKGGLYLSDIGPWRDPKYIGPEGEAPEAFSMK
PSMB7 in 20S proteasome: Proteasome subunit beta type-7, in 20S proteasome (PSMB7, Homo sapiens, UniProt Q99436)
UniProt Q99436, sequence (whole entry, looked up): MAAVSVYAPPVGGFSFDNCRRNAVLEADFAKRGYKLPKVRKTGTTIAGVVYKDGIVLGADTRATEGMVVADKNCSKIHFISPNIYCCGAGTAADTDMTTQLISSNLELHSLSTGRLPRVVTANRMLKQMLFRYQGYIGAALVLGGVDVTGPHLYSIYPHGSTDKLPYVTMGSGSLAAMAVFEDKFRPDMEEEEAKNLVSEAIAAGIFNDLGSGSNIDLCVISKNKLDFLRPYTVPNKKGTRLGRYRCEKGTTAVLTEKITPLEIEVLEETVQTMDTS
JAK2: Tyrosine-protein kinase JAK2 (JAK2, Homo sapiens, UniProt O60674)
UniProt O60674, sequence (whole entry, looked up): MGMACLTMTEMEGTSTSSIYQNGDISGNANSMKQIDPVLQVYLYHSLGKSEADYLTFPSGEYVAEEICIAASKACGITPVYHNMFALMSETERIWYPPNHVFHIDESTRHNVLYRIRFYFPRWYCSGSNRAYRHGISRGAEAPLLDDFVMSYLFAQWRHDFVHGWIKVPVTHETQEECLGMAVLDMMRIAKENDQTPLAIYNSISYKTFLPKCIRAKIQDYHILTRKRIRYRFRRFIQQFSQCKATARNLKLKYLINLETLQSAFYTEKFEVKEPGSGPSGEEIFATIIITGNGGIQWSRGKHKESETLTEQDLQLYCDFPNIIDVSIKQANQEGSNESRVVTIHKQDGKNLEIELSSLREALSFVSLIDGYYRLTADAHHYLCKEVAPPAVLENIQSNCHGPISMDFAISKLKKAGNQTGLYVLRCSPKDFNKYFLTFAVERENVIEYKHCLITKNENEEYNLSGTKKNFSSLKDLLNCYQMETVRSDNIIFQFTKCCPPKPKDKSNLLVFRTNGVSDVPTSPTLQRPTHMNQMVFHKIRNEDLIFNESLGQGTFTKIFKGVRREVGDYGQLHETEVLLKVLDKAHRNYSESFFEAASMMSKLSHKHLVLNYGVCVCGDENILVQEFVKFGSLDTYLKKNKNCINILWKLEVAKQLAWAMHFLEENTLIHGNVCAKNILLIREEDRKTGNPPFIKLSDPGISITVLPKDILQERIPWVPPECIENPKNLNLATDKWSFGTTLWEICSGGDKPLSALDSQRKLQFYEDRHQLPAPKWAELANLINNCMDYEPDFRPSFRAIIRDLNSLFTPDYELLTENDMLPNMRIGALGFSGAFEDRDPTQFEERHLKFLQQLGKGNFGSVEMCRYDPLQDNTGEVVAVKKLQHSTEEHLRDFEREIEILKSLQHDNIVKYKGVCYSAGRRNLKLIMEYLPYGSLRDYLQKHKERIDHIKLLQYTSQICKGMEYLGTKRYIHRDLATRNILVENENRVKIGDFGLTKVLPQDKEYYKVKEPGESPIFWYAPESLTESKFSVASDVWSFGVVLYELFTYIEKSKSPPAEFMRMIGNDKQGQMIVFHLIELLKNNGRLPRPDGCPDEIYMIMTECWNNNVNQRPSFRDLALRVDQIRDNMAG
UniProt P28907, sequence (whole entry, looked up): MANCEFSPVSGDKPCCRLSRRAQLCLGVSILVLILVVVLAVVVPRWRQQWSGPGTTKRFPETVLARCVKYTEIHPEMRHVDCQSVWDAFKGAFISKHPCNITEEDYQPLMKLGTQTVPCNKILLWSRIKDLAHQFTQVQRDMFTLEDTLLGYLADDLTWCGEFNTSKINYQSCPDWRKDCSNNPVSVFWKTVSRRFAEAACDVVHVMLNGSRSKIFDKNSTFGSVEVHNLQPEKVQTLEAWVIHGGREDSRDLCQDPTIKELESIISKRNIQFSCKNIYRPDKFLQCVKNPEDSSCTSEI
UniProt P39476, sequence (whole entry, looked up): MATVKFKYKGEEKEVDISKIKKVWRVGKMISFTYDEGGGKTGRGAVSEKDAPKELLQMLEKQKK

Compound	target	assay	system	setting	IC50
O=C1CCCCC1C(C[N+](=O)[O-])c1ccccc1 (centres unmarked)	PTGS1	enzyme activity, inhibitor			57400 nM
COc1cccc(-c2cc(C(=O)NCCN(C)C)c3cc(Br)ccc3n2)c1	TPR	inhibitor, DTNB-coupled colourimetric		with: substrate at Km	> 100000 nM
COc1cc(-c2nc3ccc(C(=O)NCCCN4CCN(c5ccccn5)CC4)cc3n2C2CCC2)cc(OC)c1OC	ACVR1 (Homo sapiens, UniProt Q04771, R206H)	binding, NanoBRET	HEK293		710 nM
CNC(=O)C1CCN(c2ccccc2NC(=O)c2ccc(-c3cc(O)ccc3C)c(OC)c2)CC1	EPHA4	target engagement in cells, BRET			119 nM
COc1cccc(/C=C/C(=O)c2cccc(C)c2)c1OC	Seed linoleate 13S-lipoxygenase-1	enzyme activity, inhibitor, absorbance			25900 nM
Cc1cc(O)cc2c1C(=O)c1c(cc3oc(=O)cc(-c4ccc(O)cc4)c3c1O)C2=O	mushroom tyrosinase	enzyme activity		with: L-DOPA	> 100 µg/mL
CCCN(CCC)c1[nH]cnc2ncnc1-2	Sensor histidine protein kinase/phosphatase WalK (walK, Streptococcus pneumoniae, UniProt Q8DPL8)	enzyme activity, ATP-competitive inhibitor			372000 nM
CC(C)NCc1ccc(C[C@@H]2NC(=O)[C@@H](Cc3c[nH]c4ccccc34)NC(=O)[C@H](Cc3ccccc3)NC(=O)[C@@H](N)CSSC[C@@H](C(=O)N[C@H](C(N)=O)[C@@H](C)O)NC(=O)[C@H](Cc3ccc(O)c(I)c3)NC2=O)cc1	SSTR3 (Homo sapiens, UniProt P32745)	ligand displacement, radioligand		cell membranes	989 nM
CN1CCCC[C@H]1[C@@H](NC(=O)c1nccc(C(F)(F)F)c1Cl)c1cccc(-c2cn[nH]c2)c1	Slc6a9 (Mus musculus, UniProt P28571)	[3H]glycine uptake, inhibitor	mouse brain homogenate		5 nM
O=C(c1ccc(I)c([N+](=O)[O-])c1)N1CCN(c2ccccc2F)CC1	SEC14	enzyme activity, inhibitor, radiometric			174 nM
COc1cc2nccc(Oc3ccc(NC(=O)NC4CC4)c(Cl)c3)c2cc1C(N)=O	FGFR4 (Homo sapiens, UniProt P22455)	enzyme activity, inhibitor			> 100 nM
CCn1c(SC(C)C(=O)Nc2ccccc2)nnc1C1CCN(C(=O)Nc2ccccc2)CC1 (centres unmarked)	Seed linoleate 13S-lipoxygenase-1	enzyme activity, inhibitor			5760 nM and < 7000 nM
COc1cc(N2CCN(C)CC2)ccc1Nc1ncc2c(n1)N(C)c1ccc(C)cc1C(=O)N2CC(F)(F)F	MAPK7 (Homo sapiens, UniProt Q13164)	binding, KINOMEscan			> 10000 nM
N#Cc1c(O)nsc1Nc1ccccc1C(F)(F)F	SARM1 (Homo sapiens, UniProt Q6SZW1, C635A)	enzyme activity, inhibitor			12000 nM
COC1C=CC=C(C)C(=O)NC2=CC(=O)C(NCCN(C)C)=C(CC(C)CC(OC)C(O)C(C)C=C(C)C1OC(N)=O)C2=O (centres unmarked)	KDM6B (Homo sapiens, UniProt O15054)	enzyme activity, inhibitor, AlphaScreen			< 1000 nM
Fc1ccccc1NCc1cn(-c2ccccc2)nc1-c1ccc(OCc2ccccc2)cc1	PTGS1	enzyme activity, inhibitor, absorbance			95200 nM
Cn1cnc(C[C@H](NC(=O)c2cnccn2)C(=O)N2CCC[C@H]2C(N)=O)c1	Thyrotropin-releasing hormone receptor (Mus musculus, UniProt P21761)	ligand displacement, radioligand			> 50000 nM
CNC(=O)C1CCN(c2ccccc2NC(=O)c2ccc(-c3c(C)ccc4[nH]ncc34)c(C)c2)CC1	EPHA4	target engagement in cells, BRET			13 nM
N#CC(=C1C=CC(=NO)C=C1)c1ccccc1 (mixture of isomers)	CSNK2A1 (Homo sapiens, UniProt P68400)	enzyme activity, inhibitor, radiometric			86800 nM
NC(=O)c1ccc(NC(=O)c2[nH]cnc2C(=O)NC2CCNCC2)cc1	PDPK1 (Homo sapiens, UniProt O15530)	enzyme activity, inhibitor			1000 nM
C=C(NC(=O)C(=C)NC(=O)c1csc(C2=NC3c4csc(n4)C4NC(=O)c5csc(n5)C(C(C)(O)C(C)O)NC(=O)C5CSC(=N5)C(=CC)NC(=O)C(C(C)O)NC(=O)c5csc(n5)C3(CC2)NC(=O)C(CCSC)NC(=O)C(=C)NC(=O)C(C)NC(=O)C(C(C)CC)NC2C=Cc3c(C(C)O)cc(nc3C2O)C(=O)OC4C)n1)C(N)=O (centres unmarked)	PSMB7 in 20S proteasome	trypsin-like activity, inhibitor	purified 20S proteasome	15 min preincubation, 37 °C, with: Boc-Leu-Arg-Arg-AMC substrate	> 590 nM
COc1ccc(SCC2CCN(C(=O)Cc3ccc(S(=O)(=O)C(C)C)cc3)CC2)cc1	KCNU1 (Homo sapiens, UniProt A8MYU2)	ion current, inhibitor, patch clamp			1290 nM

Compound	target	assay	system	setting	IC50
C[C@](C(=O)NC1CCOCC1)(c1cncnc1)N(C(=O)[C@H](F)Cl)c1ccc(OC(F)(F)Cl)cc1	CYP2C19 (Homo sapiens, UniProt P33261)	enzyme activity, inhibitor		10 (unit not given)	> 50000 nM
O=c1c(-c2ccccc2)c[nH]n1-c1ccccn1	EGLN2 (Homo sapiens, UniProt Q96KS0)	enzyme activity, inhibitor, europium VBC binding		10 µM FeSO4, 2 mM ascorbate, with: 20 µM 2-oxoglutarate	5400 nM
CC[C@H](C)[C@H](NC(=O)CNC(=O)[C@H](CC(=O)O)NC(=O)[C@H](CO)NC(=O)Cc1cccnc1)C(=O)N[C@@H](Cc1ccccc1)C(=O)N[C@H](C(=O)N[C@@H](CC(=O)O)C(=O)N[C@@H](CO)C(=O)N[C@@H](Cc1ccc(O)cc1)C(=O)N[C@@H](CO)C(=O)N[C@@H](CCCNC(=N)N)C(=O)N[C@@H](Cc1ccc(O)cc1)C(=O)N[C@@H](CCCNC(=N)N)C(=O)N[C@@H](CCCCN)C(=O)N[C@@H](CCC(N)=O)C(=O)N[C@@H](CCSC)C(=O)N[C@@H](C)C(=O)N[C@H](C(=O)N[C@@H](CCCCN)C(=O)N[C@@H](CCCCN)C(=O)N[C@@H](C)C(=O)N[C@@H](CC(C)C)C(=O)N[C@@H](C)C(=O)N[C@@H](C)C(=O)N[C@H](C(=O)N[C@@H](CC(C)C)C(=O)NCC(=O)N[C@@H](CCCCN)C(=O)N[C@@H](CCCNC(=N)N)C(=O)N[C@@H](Cc1ccc(O)cc1)C(=O)N[C@@H](CCCCN)C(=O)N[C@@H](CCC(N)=O)C(=O)N[C@@H](CCCNC(=N)N)C(=O)N[C@H](C(=O)N[C@@H](CCCCN)C(=O)N[C@@H](CC(N)=O)C(=O)N[C@@H](CCCCN)C(N)=O)C(C)C)C(C)C)C(C)C)[C@@H](C)O	ADCYAP1R1 (Homo sapiens, UniProt P41586)	ligand displacement, radioligand			83.2 nM
O=C(/C=C(\O)C(F)(F)C(F)(F)F)c1cccnc1	Formate-nitrite transporter (FNT, Plasmodium ovale, UniProt A0A1D3TGZ2)	L-lactate transport, inhibitor	yeast	pH 6.8, with: 14C-L-lactate 1 mM	210 ± 30 nM
CC(=O)NCCN(CCC(=O)NCCN(CCC(=O)NCCN(CCC(=O)NCCC(N)=O)C(=O)[C@@H](N)Cc1ccccc1)C(=O)[C@@H](N)CCCNC(=N)N)C(=O)[C@@H](N)Cc1ccccc1	HIV-1 TAR RNA	Tat/TAR complex displacement, FRET		room temperature, with: 10 nM Tat/TAR complex	74000 ± 500 nM
C=C(NC(=O)C(=C)NC(=O)c1csc(C2=NC3c4csc(n4)C4NC(=O)c5csc(n5)C(C(C)(O)C(C)O)NC(=O)C5CSC(=N5)C(=CC)NC(=O)C(C(C)O)NC(=O)c5csc(n5)C3(CC2)NC(=O)C(C)NC(=O)C(=C)NC(=O)C(=CC)NC(=O)C(C(C)CC)NC2C=Cc3c(C(C)O)cc(nc3C2O)C(=O)OC4C)n1)C(N)=O (centres unmarked)	PSMB7 in 20S proteasome	trypsin-like activity, inhibitor	purified human 20S proteasome	37 °C, 15 min preincubation, with: Boc-Leu-Arg-Arg-AMC	1300 ± 200 nM
N#C/C(=C\c1cccc(-c2cccc3[nH]ncc23)c1)C(N)=O	JAK2	kinase activity, inhibitor		up to highest tested, with: ATP at Km	> 10000 nM
O=C(c1ccccc1I)N1CCN(c2ccc(F)cc2)CC1	SEC14	enzyme activity, inhibitor, radiometric			> 100000 nM
CC(C)C[C@H](NC(=O)[C@@H](Cc1c[nH]c2ccccc12)NC(=O)[C@H](Cc1c[nH]cn1)NC(=O)[C@H](CO)NC(=O)[C@H](Cc1c[nH]c2ccccc12)NC(=O)[C@H](Cc1c[nH]cn1)NC(=O)[C@@H]1CCC(=O)N1)C(=O)N[C@@H](CCCNC(=N)N)C(=O)N1CCC[C@H]1C(=O)NCC(N)=O	Gonadotropin-releasing hormone receptor (Rattus norvegicus, UniProt P30969)	ligand displacement in cells, radioligand			0.8 nM
CC(C)n1ccn2cc(C(=O)NCc3ccc(F)cc3F)c(=O)c(O)c2c1=O	gag-pol/sso7d, integrase (Human immunodeficiency virus type 1 group M subtype B, UniProt P12497+P39476)	integrase strand transfer, inhibitor, concerted integration	HIV-1		109 nM
CC[C@H](C)[C@H](NC(=O)[C@H](CO)NC(=O)[C@@H](Cc1cccnc1)NC(=O)[C@@H](Cc1ccc(Cl)cc1)NC(=O)[C@@H](Cc1ccc2ccccc2c1)NC(C)=O)C(=O)N[C@H](CCCCNC(C)C)C(=O)N[C@@H](CC(C)C)C(=O)N[C@@H](CCCCNC(C)C)C(=O)N1CCC[C@H]1C(=O)N[C@H](C)C(N)=O	Gonadotropin-releasing hormone receptor (Gallus gallus, UniProt Q9DDC9)	inositol phosphate production, antagonist	COS-7 transfected	with: GnRH-II 1 nM	2330 ± 134 nM
Nc1ncnc2c1ncn2CCOCP(=O)(O)OP(=O)(O)C(F)(F)P(=O)(O)O	Gag-Pol polyprotein, reverse transcriptase (gag-pol, Human immunodeficiency virus 1, UniProt P03366)	reverse transcriptase activity, inhibitor			403000 ± 75500 nM
COc1cc(/C=C2/SC(=S)N(CC(=O)Nc3ccccn3)C2=O)cc(OC)c1OC	CD38 (Homo sapiens, UniProt P28907)	enzyme activity, inhibitor, fluorescence			16600 nM
CN(C)CCNC(=O)c1cc(-c2ccncc2)nc2ccc(Br)cc12	TPR	inhibitor, DTNB-coupled colourimetric		with: substrate at Km	96300 nM
CC1OC(Oc2c(-c3ccc(O)cc3)oc3cc(O)cc(O)c3c2=O)C(OC(=O)C=Cc2ccc(O)cc2)C(O)C1OC(=O)C=Cc1ccc(O)cc1 (centres unmarked)	CCR9 (Homo sapiens, UniProt P51686)	calcium flux, antagonist	293FT GCaMP6 transfected		> 10000 nM
FC(F)(F)c1csc(Nc2ccc(Cl)c(Cl)c2)n1	Kinesin-like protein KIF15 (Homo sapiens, UniProt Q9NS87)	ATPase activity, inhibitor			20900 nM
NC(=O)[C@@H]1CCNC(=O)[C@H](CCCNC(=O)c2cnccn2)NC(=O)[C@H](Cc2ccco2)NC(=O)[C@H](CC2CC2)NC(=O)/C=C\C(=O)N1	Lck (Mus musculus, UniProt P06240)	enzyme activity, inhibitor, absorbance			> 100000 nM
CCCCCCCCC/C=C/C=C/C(=O)N[C@H](C(=O)N[C@H]1C[C@@H](O)CCNC(=O)/C=C/[C@H](C)NC1=O)[C@@H](C)O	PSMB7 (Homo sapiens, UniProt Q99436)	trypsin-like activity, inhibitor		human constitutive proteasome, with: Bz-VGR-AMC	24 nM
Nc1ncc(-c2cnn(C3CCNCC3)c2)cc1-c1nc2ccc(O)cc2o1	JAK2	enzyme activity, inhibitor, TR-FRET			123 nM
CNC(=O)C1CCN(c2ccccc2NC(=O)c2ccc(-c3cc(O)ccc3C)cc2)CC1	EPHA4	target engagement in cells, BRET			64.8 nM
N#C/C(=C\c1cc(Cn2cncn2)cs1)C(N)=O	Ribosomal protein S6 kinase alpha-3, C-terminal kinase domain (RPS6KA3, Homo sapiens, UniProt P51812)	enzyme activity, inhibitor		10 mM reduced glutathione, with: 0.1 mM ATP, peptide substrate	50400 nM
Cc1ccnc(Oc2ccc(-c3c(-c4ccc(NC(=O)C(C)C)cc4)n(C)c4ncnc(N)c34)cc2F)n1	FGFR2 (Homo sapiens, UniProt P21802)	Caliper mobility shift		30 min preincubation, with: 100 µM ATP	2170 nM
